Results gathered from unrelated publications.
A part holds a random share of what one study measured. Changes are numbered by the printed parent chain.

Series 1 — method: protein-binding microarray; form: double-stranded DNA, one strand shown; medium: in vitro; tested at: 250 nM; setting: 60-bp whole probe; added: salmon DNA 0.4 mg/ml; baseline: random background probes; direction: higher = stronger binding; endpoint: log fluorescence; constant ends, left off below: GCCTAGCAC … GTCTTGATTCGCTTGACGCTGCTG
Target: Interferon regulatory factor 5, full length, phosphomimetic (IRF5, Homo sapiens, UniProt Q13568-2, residues 1-514, K96S/S451D/S453D/S456D/S462D)
TTAGGGTTCGACTTTCGGTTAGTGCTA: 9.24 z-score
GAGGGTCTCGGTTTCGGGACGTGCTAG: 2.97 z-score
TTAGGTATCTGGTATCGGTTAGTGCTA: 6.38 z-score
CTAATTTTGAGACTCATGGGGTGCTAG: 0.129 z-score
TTAGGTTTCCTAATCCTTTAGTGCTAG: 0.52 z-score
GACGGTTTCGCCACTGGGGACGTGCTA: 2.95 z-score
GACGGACTGTGTATCGGGACGTGCTAG: 0.25 z-score
GATGGTTTCGGGTATCGGGACGTGCTA: 8.8 z-score
TTAGGACTGCTTATCCTATAGTGCTAG: -0.231 z-score
GCATTTTTCTAATTTACTTTGTGCTAG: 0.983 z-score
TCAAATCCCACATTTGATACTGTGCTA: 0.5 z-score
TTATGTTTCGGACTGGGTTAGTGCTAG: 5.74 z-score
TTAGGTTTCGACTATCGTTTAGTGCTA: 8.45 z-score
GATGGTTCCGGTTTCGGGACGTGCTAG: 5.47 z-score
TACTCTCCAGGGTTTCTCTTTGTGCTA: 0.524 z-score
TTAGGTATCGGGACAGGGTTAGTGCTA: 2 z-score
CACGATTTCGGGACTGGAGACGTGCTA: 1.49 z-score

Series 2 — target: JDP2, bZIP domain (human); method: DHFR protein complementation; medium: yeast; baseline: wild-type JUN-FOS pair; direction: higher = stronger binding; endpoint: binding fitness
Setting: single substitutions, most at no-binding floor
Starting sequence: JUN, bZIP domain (human); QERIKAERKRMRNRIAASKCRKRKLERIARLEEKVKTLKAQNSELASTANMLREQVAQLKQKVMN; partner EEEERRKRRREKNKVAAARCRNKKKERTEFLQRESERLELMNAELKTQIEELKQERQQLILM
I28Y: 0.198 natural log
T48I: 0.204 natural log
L31C: 0.0996 natural log
E33W: 0.163 natural log
L52D: -1.02 natural log
K34N: 0.259 natural log
E32F: 0.11 natural log
L31I: 0.219 natural log
T37R: 0.295 natural log
K34E: 0.28 natural log
A57R: 0.258 natural log
K34H: 0.399 natural log
E44A: 0.273 natural log
E33A: 0.282 natural log
A57N: 0.318 natural log
I28W: 0.309 natural log
K36H: 0.295 natural log

Series 3 — target: CCNE2, cyclin fold, Cln2 fusion (human); method: yeast growth competition, sequencing; medium: yeast; setting: strong parent motif; baseline: not given; direction: higher = stronger binding; endpoint: normalised enrichment score
Starting sequence: GMNC docking peptide (human); KNAKRNLSSEFAN
KNAKRNLHSEFAN [S8H]: 0.724
KAAKRNLSSEFAN [N2A]: 0.799
KNAKRNLSSLFAN [E10L]: 0.589
KNAKRNLSSEPAN [F11P]: -0.46
KNAKRNISSEFAN [L7I]: 0.347
KNAKRFLSSEFAN [N6F]: 0.388
KNAKRNLFSEFAN [S8F]: 2.12
KNAKLNLSSEFAN [R5L]: -0.000301
KNCKRNLSSEFAN [A3C]: 1.4
KNAKRNSSSEFAN [L7S]: 0.192
KYAKRNLSSEFAN [N2Y]: 0.846
KNAKRNLSSEGAN [F11G]: 0.256
KNAKRNLSSAFAN [E10A]: 0.828
KNAKANLSSEFAN [R5A]: 0.209
KNAKFNLSSEFAN [R5F]: 0.212
KNAKRNLSSVFAN [E10V]: 1.64
KNAQRNLSSEFAN [K4Q]: 0.391
KNAKRNLSSQFAN [E10Q]: 1.24
KNAKHNLSSEFAN [R5H]: 0.527
KNAERNLSSEFAN [K4E]: -0.296
KNAARNLSSEFAN [K4A]: 0.86
KNAYRNLSSEFAN [K4Y]: 0.532
KKAKRNLSSEFAN [N2K]: 1.73
KNAKRNLNSEFAN [S8N]: 1.7
KNAKRNLSSEFEN [A12E]: 1.71

Series 4 — method: DHFR PCA, deep sequencing; medium: yeast; added: (+)-ABA 4.8 µM; baseline: wild-type fitted maximum; direction: higher = stronger binding; endpoint: relative binding score
Target: ABI1, truncated, D143A, DHFR fusion (Arabidopsis thaliana)
Setting: methotrexate growth selection, single substitutions
Starting sequence: PYL1, truncated, DHFR fusion (Arabidopsis thaliana); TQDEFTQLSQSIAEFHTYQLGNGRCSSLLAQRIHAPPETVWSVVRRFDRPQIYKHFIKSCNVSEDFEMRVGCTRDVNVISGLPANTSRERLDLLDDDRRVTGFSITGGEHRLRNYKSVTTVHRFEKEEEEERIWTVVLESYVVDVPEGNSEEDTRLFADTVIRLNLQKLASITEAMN
V161K: -1.21%
F103Q: 4.19%
S140W: -3.01%
T86K: 54.3%
L82F: 48.7%
V70N: 10%
L164E: 8.27%
V70M: 27%
L91Y: 0.323%
G108H: -9.3%
A35G: 11.6%
R155P: -9.47%
G71N: 14.3%
L112N: -9.8%
T120A: 2.13%
L112V: 4.24%
R99D: -3.01%
N85D: 65.6%
R90N: 0.475%
H55K: 82.4%
P83M: 11.8%
V44F: -14%
R163Y: 0.444%
V142Q: 77.1%
D3W: 64%

Series 5 — method: protein-binding microarray; form: double-stranded DNA, one strand shown; medium: in vitro; tested at: not given; direction: higher = stronger binding; endpoint: E-score
Target: Protein C-ets-1 (ETS1, Homo sapiens, UniProt P14921, residues 1-441, K379A, full length assumed)
Setting: k-mer, scored over probes, only values ≥0.25
Construct (chain): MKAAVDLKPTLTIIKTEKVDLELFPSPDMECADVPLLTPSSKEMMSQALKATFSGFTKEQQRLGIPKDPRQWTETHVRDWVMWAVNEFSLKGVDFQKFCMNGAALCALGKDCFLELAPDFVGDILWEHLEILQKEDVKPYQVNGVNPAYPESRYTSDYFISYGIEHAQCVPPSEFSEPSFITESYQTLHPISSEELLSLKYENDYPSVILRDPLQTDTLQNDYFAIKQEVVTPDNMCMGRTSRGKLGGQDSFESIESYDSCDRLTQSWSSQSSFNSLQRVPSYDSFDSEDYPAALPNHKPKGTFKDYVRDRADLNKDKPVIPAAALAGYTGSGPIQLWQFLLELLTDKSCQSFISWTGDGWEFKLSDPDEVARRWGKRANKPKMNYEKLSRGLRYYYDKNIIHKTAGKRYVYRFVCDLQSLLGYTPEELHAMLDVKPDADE
GGCCGGGA: 0.364
GACCTTTA: 0.253
CCCCGGGA: 0.377
CCGGTAGG: 0.253
GAACGACA: 0.302
GCCGGAAC: 0.356
GGTTGTCA: 0.253
AGGGGAGG: 0.268
ATATTACC: 0.251
AAGCGGAA: 0.29
CGATATCG: 0.29
AACTCCGG: 0.343
ACCGGCAA: 0.357
CTAATTAG: 0.251
ACATCCGG: 0.443
CGTCGTAC: 0.294
CCGGAGTA: 0.29
CGTCGGAA: 0.253
CCGGTAGA: 0.35
ATCCCGGA: 0.338
CATACCGG: 0.413
ACCCCCGG: 0.422
CGGTCAAC: 0.251

Series 6 — method: RNAcompete; form: RNA; medium: in vitro; tested at: 20 nM; setting: 7-mer, probes averaged, single round; baseline: mean of 7-mers; direction: higher = stronger binding; endpoint: 7-mer Z-score
Target: PABPC1L2, full length, GST fusion (mouse, UniProt A0ABA7IW68)
Residues (chain): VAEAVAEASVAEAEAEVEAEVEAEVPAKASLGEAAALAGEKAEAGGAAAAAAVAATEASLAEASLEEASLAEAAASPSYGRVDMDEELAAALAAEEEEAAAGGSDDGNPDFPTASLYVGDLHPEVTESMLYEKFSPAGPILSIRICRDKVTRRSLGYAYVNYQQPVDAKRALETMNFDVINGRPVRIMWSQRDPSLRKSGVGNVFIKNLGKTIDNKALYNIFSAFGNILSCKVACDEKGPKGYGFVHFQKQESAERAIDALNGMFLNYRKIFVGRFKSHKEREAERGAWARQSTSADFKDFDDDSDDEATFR
CAAGAUG: 0.0696
AAAUGUU: 0.568
CCGCAGC: -0.22
CUGCUAG: -0.211
ACUCCUG: -0.246
UAUUACG: -0.119
CAGCCGC: -0.391
CAUAGAA: 0.325
CUGAUCG: -0.249
UGGUCCA: -0.144
CGCAAGC: -0.38
UCCGAAG: -0.161
CGUUUAA: -0.26
CGAAAGG: 0.0696
CAGUCGA: 0.0189
UUCGGGU: -0.151
ACAAACA: 2.84

Excerpt of the above (series 5):
GGTTGTCA: 0.253
GCCGGAAC: 0.356
ATCCCGGA: 0.338
CATACCGG: 0.413
CGATATCG: 0.29
ACCCCCGG: 0.422
GGCCGGGA: 0.364
AACTCCGG: 0.343
GAACGACA: 0.302
CCCCGGGA: 0.377
AGGGGAGG: 0.268
GACCTTTA: 0.253
CGTCGGAA: 0.253
AAGCGGAA: 0.29
CCGGTAGA: 0.35
